# Published values pooled from the literature.
# Each line is one published result; not all experiments were run side by side. Values joined by “and” are separate records of one study, mostly repeats; a detail may differ.
# Target: Myosin light chain kinase, smooth muscle (MYLK, Homo sapiens, UniProt Q15746)
Structure (SMILES),assay,system,conditions,how to read,endpoint,result
c1ccc2c(Nc3cc(C4CCC4)[nH]n3)nc(Nc3ccc4nc[nH]c4c3)nc2c1,"enzyme activity, inhibitor",,0.25 µM,,remaining activity,39%
C=CC(=O)Nc1cc(-c2nn(C3CCN(CCNC(=O)[C@H](C)CCC45CC6CC(CC(C6)C4)C5)CC3)c3ncnc(N)c23)ccc1Oc1ccccc1,"inhibitor, KiNativ profiling",biochemical,2 µM,,inhibition,-15.2%
Cc1ccc(C)c(-c2ccc3nc(NC(=O)C4CCCCC4)nn3c2)c1,"enzyme activity, Dundee kinase panel",,10 µM,,remaining activity,85%
CCn1cc(C(=O)O)c(=O)c2c(N)c(F)c(NC3CCCCC3)cc21,kinase activity,,"0.1 µM, with: ATP at Km",,inhibition,10.3%
CC(C)=CC1OC(C)(C)C2C=C3C(=O)C(Cl)=CC(O)C3C3C(O)C4OC4C(=O)C132 (centres unmarked),"cell-free assay, competition with immobilised ligand",,10 µM,,remaining binding,97%
NC(=O)C[C@H]1CCc2sc3ncnc(O[C@H]4CC[C@H](N5CCOCC5)CC4)c3c21,"enzyme activity, inhibitor",,10 µM,,inhibition,5%
Cc1cccc(-c2ccc3nc(NC(=O)C4CCOCC4)nn3c2)c1,"enzyme activity, Dundee kinase panel",,10 µM,,remaining activity,88%
CN1CC[C@@H](COc2cnc(C#N)cc2-c2ccn3nc(NC(=O)C4CC4)cc3c2)C1,"enzyme activity, inhibitor",,1 µM,,inhibition,-18%
C=CC(=O)N1CCCC(n2c(=O)c3ncccc3n(Cc3ccc(Oc4ccccc4)cc3)c2=O)C1 (centres unmarked),"cell-free assay, competition with immobilised ligand",,1 µM,,remaining binding,100%
COc1cc(Nc2nccc(-c3cnn4nc(OC)ccc34)n2)cc(C(F)(F)F)c1,"binding, competition with immobilised ligand",,1 µM,,remaining binding,97%
N[C@H]1CC[C@H](Nc2nccc(-c3cccnc3Oc3ccc(NC(=O)NC4CC4)c4ccccc34)n2)CC1,kinobead competition pulldown,HEK293/HCT116 lysate mixture,"10 µM, 1 h, 4 °C",lower = stronger competition,log2 LFQ intensity,20.7 and 20.9 and 19.6
Nc1nc(Nc2ccccc2)sc1C(=O)c1ccccc1,"enzyme activity, inhibitor",,10 µM,,remaining activity,22%
C=CC(=O)N1CCc2ccc(-n3c(=O)ccc4cnc5ccc(-c6cnn(C)c6)cc5c43)cc21,KINOMEscan,,1 µM,relative to: DMSO control,remaining binding,100%
Nc1ncc(-c2cc(-c3cnn(CC(F)(F)F)c3)ncc2F)nc1C(=O)NC1CNCC(F)C1 (centres unmarked),enzyme activity,,1 µM,relative to: DMSO control,remaining activity,91.9%
